# Measured values collected from several papers.
# ± gives the spread as reported.
SMILES,assay,system,setting,scale,quantity,result
CC(C)C[C@H](NC(=O)[C@H](Cc1ccccc1)NC(=O)CNC(=O)C/C=C(\F)[C@@H](N)Cc1ccc(O)cc1)C(=O)O,,"BALB/c mice, brain","oral, 400 mg/kg, 5 min",,brain concentration,5 to 8 ng/mL
CC[C@H](C)[C@H](NC(=O)[C@H](CCCCN)NC(=O)[C@@H](NC(=O)[C@H](CCC(N)=O)NC(=O)[C@H](CCCNC(=N)N)NC(=O)[C@@H](N)CC(=O)O)[C@@H](C)CC)C(=O)N[C@@H](Cc1c[nH]c2ccccc12)C(=O)N[C@@H](Cc1ccccc1)C(=O)N[C@@H](CCC(N)=O)C(=O)N[C@@H](CC(N)=O)C(=O)N[C@@H](CCCNC(=N)N)C(=O)N[C@@H](CCCNC(=N)N)C(=O)N[C@@H](CCSC)C(=O)N[C@@H](CCCCN)C(=O)N[C@@H](Cc1c[nH]c2ccccc12)C(=O)N[C@@H](CCCCN)C(=O)N[C@@H](CCCCN)C(=O)N[C@@H](CC(C)C)C(=O)N[C@@H](CC(=O)O)C(=O)N[C@@H](Cc1c[nH]c2ccccc12)C(=O)N[C@@H](CO)C(=O)N[C@@H](Cc1c[nH]c2ccccc12)C(=O)N[C@@H](CC(C)C)C(=O)O,HPLC,"5XFAD transgenic mice, hippocampus","intranasal, 0.1 mg/kg every 2 days, 30 d",,concentration,0.312 µg/mg tissue
C[S]1CC[S]2CC[P](CO)(CO)[99Tc+]12.[C-]#[O+].[C-]#[O+].[C-]#[O+],,CF-1 mouse,"intravenous, 24 h",,uptake in large intestine,2.7 %ID
CN(C)C(CNC(=O)Nc1cc(C(F)(F)F)ccc1N1CCOCC1)c1ccncc1 (centres unmarked),,"mouse, serum","intraperitoneal, 240 mg/kg single dose",,serum AST,684 U/L
CC[C@@H]1C[C@]1(NC(=O)[C@@H]1C[C@@]2(CN1C(=O)[C@@H](NC(=O)[C@@H](NC(=O)[C@@H]1CCCCN1C(C)C)C1CCCCC1)C(C)(C)C)C(C)(C)C21CCC1)C(=O)NS(=O)(=O)N1CCCC1,,healthy human,"oral, 30 mg single dose",,subjects with nausea,0%
c1ccc(C2(CCNC3CCC4(SCCS4)c4ccccc43)CCOC3(CCCC3)C2)nc1 (centres unmarked),,"male CD-1 mouse, plasma","intravenous, 0.3 mg/kg",,clearance,81.9 mL/min/kg
Cc1cccc2c1NC(=O)C2=Cc1ccc(-c2cccc(C(=O)N3CCCN(C)CC3)c2)o1 (mixture of isomers),,,"SGF pH 1.2, SIF pH 6.8",relative to: SGF over SIF,solubility ratio,~16 fold
CC(C)C[C@H]1NC(=O)[C@H](NC(=O)CN)CSSC[C@H]2NC(=O)[C@H]3CSSC[C@H](C(=O)N[C@H](CC(N)=O)C(=O)N[C@H](Cc4ccccc4)C(=O)N[C@H](CO)C(=O)N[C@H](Cc4ccccc4)C(N)=O)NC(=O)[C@@H](CC(C)C)NC(=O)[C@@H](CCCCN)NC(=O)[C@@H](Cc4ccccc4)NC(=O)[C@@H](CC(C)C)NC(=O)[C@@H](CCCCN)NC(=O)[C@@H](CO)NC(=O)[C@@H](CSSC[C@@H](NC(=O)[C@@H](CCCCN)NC(=O)[C@@H](Cc4c[nH]c5ccccc45)NC(=O)[C@@H](Cc4c[nH]c5ccccc45)NC(=O)[C@@H](Cc4ccccc4)NC(=O)[C@@H](CCC(=O)O)NC1=O)C(=O)N[C@H](CC(N)=O)C(=O)N1CCC[C@@H]1C(=O)N[C@H](CC(N)=O)C(=O)N[C@H](CC(=O)O)C(=O)N[C@H](CC(=O)O)C(=O)N[C@H](CCCCN)C(=O)N3)NC(=O)[C@@H](CCCCN)NC(=O)[C@@H](CC(C)C)NC(=O)[C@@H](CCCCN)NC(=O)[C@H]1CCCN1C(=O)[C@@H](CCCNC(=N)N)NC2=O,,"D2.mdx mice, all tissues","dose not given, two weeks after dosing stopped",relative to: peak,concentration,12 to 19%
CC[C@H](C)C(=O)N1CCC(NC(=O)Nc2ccc(OC(F)(F)F)c(F)c2)CC1,,healthy volunteers,"oral, 24 mg single dose",,subjects with palpitations TEAE,0%
O=C(CN1CCN(c2cc3c(cc2F)c(=O)c(C(=O)O)cn3C2CC2)CC1)Nc1ccc(Cl)cc1,,,,relative to: DMSO over water,solubility ratio,> 1000 fold
C/C=C/C=C/C/C=C/CCCCCCCc1cccc(O)c1O,,"Wistar rat, male, plasma","intravenous, 20 mg/kg",,AUMC,75.1 ± 4.01 mg·h²/L
CCCC[C@H](NC(=O)[C@H](Cc1c[nH]c2ccccc12)NC(=O)CNC(=O)[C@H](Cc1ccc(O)cc1)NC(=O)[C@H](C)NC(=O)[C@H](CCC(=O)O)NC(=O)[C@H](Cc1c[nH]cn1)NC(=O)[C@H](Cc1c[nH]cn1)NC(=O)[C@H](Cc1c[nH]cn1)NC(=O)[C@H](Cc1c[nH]cn1)NC(=O)[C@H](Cc1c[nH]cn1)NC(=O)[C@H](Cc1c[nH]cn1)NC(=O)CN1CCN(CC(=O)O)CCN(CC(=O)O)CCN(CC(=O)O)CC1)C(=O)N[C@@H](CC(=O)O)C(=O)N[C@@H](Cc1ccccc1)C(N)=O,,"MF1 nude mouse, male, HT29-CCK2R xenograft","intravenous, 0.2 µg, 4 h, 111In-labelled",relative to: tumour over kidney,tumour-to-kidney ratio,0.05
CC[C@H](C)[C@H](NC(=O)[C@H](CCCCN)NC(=O)CNC(=O)[C@H](CC(C)C)NC(=O)[C@@H](NC(=O)[C@H](C)NC(=O)[C@H](CCCCN)NC(=O)CNC(=O)[C@H](C)NC(=O)CNC(=O)[C@H](CCCCN)NC(=O)[C@H](CCSC)NC(=O)[C@H](CCCCN)NC(=O)[C@@H](NC(=O)[C@H](Cc1c[nH]c2ccccc12)NC(=O)[C@H](CC(C)C)NC(=O)[C@H](CCC(=O)O)NC(=O)[C@H](CCCCN)NC(=O)[C@H](CC(C)C)NC(=O)[C@@H](N)CC(C)C)[C@@H](C)O)C(C)C)C(=O)N[C@@H](CCCCN)C(=O)NCC(=O)N[C@@H](CC(C)C)C(=O)N[C@@H](CC(C)C)C(=O)O,acrylamide quenching,POPE:DOPG 3:1 vesicles,"2 µM, 250 µM total lipid, with: acrylamide",,Stern-Volmer constant,1.51 ± 0.08 M⁻¹
CCCCCCCC(=O)OC[C@H](NC(=O)[C@H](CO)NC(=O)CN)C(=O)N[C@@H](Cc1ccccc1)C(=O)N[C@@H](CC(C)C)C(=O)N[C@@H](CO)C(=O)N1CCC[C@H]1C(=O)N[C@@H](CCC(=O)O)C(=O)N[C@@H](Cc1cnc[nH]1)C(=O)N[C@@H](CCC(N)=O)C(=O)N[C@@H](CCCNC(=N)N)C(=O)N[C@H](C(=O)N[C@@H](CCC(N)=O)C(=O)N[C@@H](CCC(N)=O)C(=O)N[C@@H](CCCNC(=N)N)C(=O)N[C@@H](CCCCN)C(=O)N[C@@H](CCC(=O)O)C(=O)N[C@@H](CO)C(=O)N[C@@H](CCCCN)C(=O)N[C@@H](CCCCN)C(=O)N1CCC[C@H]1C(=O)N1CCC[C@H]1C(=O)N[C@@H](C)C(=O)N[C@@H](CCCCN)C(=O)N[C@@H](CC(C)C)C(=O)N[C@@H](CCC(N)=O)C(=O)N1CCC[C@H]1C(=O)N[C@@H](CCCNC(=N)N)C(=O)O)C(C)C,ELISA,"human, both sexes, plasma","intravenous infusion, 3 µg/kg/h, 65 min infusion",,AUC(0-90),9.15 ± 1.67 ng·h/mL
CSCC[C@@H]1NC(=O)[C@@H]2CSSC[C@H](NC(=O)[C@H](CO)NC(=O)[C@H](C)N)C(=O)N[C@@H](CCCNC(=N)N)C(=O)N[C@@H]([C@@H](C)O)C(=O)N3CCC[C@H]3C(=O)N[C@@H](CCCCN)C(=O)N[C@@H](CC(=O)O)C(=O)N[C@H]3CSSC[C@H](NC(=O)[C@H](CCCCN)NC(=O)[C@H](CCCNC(=N)N)NC(=O)[C@H](CC(N)=O)NC1=O)C(=O)N[C@@H](CCCCN)C(=O)N[C@H]1CSSC[C@H](NC(=O)[C@@H]4CCCN4C(=O)[C@H](CC(=O)O)NC(=O)[C@H](C)NC3=O)C(=O)N[C@@H](C)C(=O)N[C@@H](CCCCN)C(=O)N[C@@H](CCC(=O)O)C(=O)N[C@@H]([C@@H](C)O)C(=O)NCC(=O)N[C@@H](CSSC[C@@H](C(N)=O)NC(=O)[C@H](CCCNC(=N)N)NC(=O)[C@H](CC(N)=O)NC1=O)C(=O)N1CCC[C@H]1C(=O)N[C@@H](Cc1ccc(O)cc1)C(=O)NCC(=O)N[C@@H](CCCCN)C(=O)N2,,"DA rat pristane-induced arthritis, serum","subcutaneous, 0.1 mg/kg every other day, 21 days",,Cholesterol,66.8 mg/dL
CC(C)[C@@H]1NC(=O)[C@H](Cc2ccccc2)NC(=O)[C@H](Cc2ccc(O)cc2)NC(=O)CCSSC[C@@H](C(=O)N2CCC[C@H]2C(=O)N[C@H](CCCNC(=N)N)C(=O)NCC(N)=O)NC(=O)[C@H](CCC(N)=O)NC1=O,,"Wistar rat, blood","intravenous, 1 µg/kg single dose, 72 h",,glucose,218 ± 13.9 mg/dL
N#Cc1c(O)c(Cl)c(Cl)c(C#N)c1Cl,,"healthy human volunteers, plasma","oral, dose not given, geometric mean, with: rosuvastatin",,rosuvastatin AUC(0-4 h),10.1 ng·h/mL
CSCC[C@H](NC(=O)CNC(=O)[C@H](CC(=O)O)NC(=O)[C@@H](NC(=O)[C@@H](NC(=O)[C@@H](NC(=O)CNC(=O)[C@H](CCC(N)=O)NC(=O)[C@H](CCSC)NC(=O)[C@H](CC(=O)O)NC(=O)[C@H](C)NC(=O)[C@H](C)NC(=O)[C@@H](NC(=O)[C@H](CO)NC(=O)[C@@H](N)CC(C)C)[C@@H](C)O)C(C)C)C(C)C)[C@@H](C)O)C(=O)N[C@@H](C)C(=O)N[C@@H](CO)C(=O)NCC(=O)N[C@@H](CC(C)C)C(=O)N[C@@H](CC(=O)O)C(=O)N[C@@H](CCCCN)C(=O)N[C@@H](CC(=O)O)C(=O)N[C@@H](Cc1ccc(O)cc1)C(=O)N[C@@H](CC(C)C)C(=O)N[C@@H](CCCCN)C(=O)N1CCC[C@H]1C(=O)N[C@@H](CC(=O)O)C(=O)N[C@@H](CC(=O)O)C(=O)O,,"human, serum","intravenous, 0.83 mg/kg, patients, infusion",,half-life,8.64 min
COC(=O)C[C@](O)(CCCC(C)(C)OC(C)=O)C(=O)O[C@@H]1C(OC)=C[C@]23CCCN2CCc2cc4c(cc2[C@H]13)OCO4,,"CD1 mouse, large intestine","subcutaneous, 1 mg/kg, 8 h",,tissue concentration,19.4 ng/mL
CC(=CCC(O)C(C)=Cc1csc(C)n1)CC=CC(C)C(O)C(C)C(=O)C(C)(C)C(O)CC(=O)O (centres unmarked),,"human, plasma","intravenous infusion, 48 mg/m2 KOS-1584, 3 h infusion, cycle 1",,Tmax,3.55 ± 0.64 h
CC(C)[C@H]1NC(=O)C[C@H]2/C=C/CCSSC[C@@H](NC1=O)C(=O)N[C@H](Cc1cccc3ccccc13)C(=O)NCC(=O)O2,,"nude mouse, blood","intravenous, 4 mg/kg",,AUC,10.4 ng·h/mL
CCN(Cc1ccccc1)C(=O)CCc1nc(CN2CCN(C(=O)Cc3ccc(OC)c(OC)c3)CC2)no1,,"rat, plasma","intravenous, 1 mg/kg, 5 min",,concentration,1030 ng/mL
COc1ccc(C)cc1NC(=O)OC1CC2CCCC(C1)N2Cc1ccc(CC[18F])cc1 (centres unmarked),,"mouse, fat","30 min, tumour-bearing",,tracer uptake,8.58 %ID/g
CC(=O)[O-].CN1CCCN2CCN(CCCN(Cc3ccccc3)CC2)CC1.F[P-](F)(F)(F)(F)F.[Co+2],cyclic voltammetry,acetonitrile,,relative to: SHE,irreversible oxidation potential,1.16 V
CC(C)[C@H](NC(=O)CNC(=O)[C@H](CCC(N)=O)NC(=O)[C@H](C)N)C(=O)O,unlikely related or unrelated,human,"15 mg/kg/h, 2 h, continuous infusion",,subjects with adverse events,16.7%
COCC(=O)NCCSc1c(-c2ccc(Br)cc2)[nH]c2ccccc12,,rat,,,CL,61 mL/min/kg
CC(C)C[C@@H](NC(=O)[C@@H](CCCNC(=N)N)NC(=O)[C@@H](Cc1c[nH]cn1)NC(=O)[C@@H](Cc1c[nH]c2ccccc12)NC(=O)[C@@H](Cc1c[nH]cn1)NC(=O)[C@@H](Cc1ccccc1)NC(=O)[C@H](NC(=O)[C@@H](Cc1ccc(O)cc1)NC(=O)CNC(=O)CNC(=O)CCOCCOCCOCCNC(=O)CN1CCN(CC(=O)O)CCN(CC(=O)O)CC1)[C@H](C)O)C(=O)N[C@H](CC(N)=O)C(=O)N1CCC[C@@H]1C(=O)O [gallium-68 labelled],,male C57BL/6 mice,"intravenous, 1.85 MBq, 60 min, with: antibody blocking",relative to: tumour over blood,tumour-to-tissue ratio,4.89 ± 0.89
CCCCC[C@H]1C(=O)N(C)[C@H](C)C(=O)N(C)[C@@H](CCCCC)C(=O)N(C)[C@H](C)C(=O)N(C)[C@@H](CCCCC)C(=O)N(C)[C@H](C)C(=O)N(C)[C@@H](CCCCC)C(=O)N(C)[C@H](C)C(=O)N1C,,Caco-2,10 µM,,Papp A→B,1.99 ×10⁻⁶ cm/s
CN[C@](C)(C[18F])C(=O)O,,"mouse, blood","30 min, tumour-bearing",,tracer uptake,1.8 %ID/g

# For quick reference, copied from above:
SMILES,assay,system,setting,scale,quantity,result
CC(=CCC(O)C(C)=Cc1csc(C)n1)CC=CC(C)C(O)C(C)C(=O)C(C)(C)C(O)CC(=O)O (centres unmarked),,"human, plasma","intravenous infusion, 48 mg/m2 KOS-1584, 3 h infusion, cycle 1",,Tmax,3.55 ± 0.64 h
CC(C)[C@H](NC(=O)CNC(=O)[C@H](CCC(N)=O)NC(=O)[C@H](C)N)C(=O)O,unlikely related or unrelated,human,"15 mg/kg/h, 2 h, continuous infusion",,subjects with adverse events,16.7%
CC(C)C[C@H](NC(=O)[C@H](Cc1ccccc1)NC(=O)CNC(=O)C/C=C(\F)[C@@H](N)Cc1ccc(O)cc1)C(=O)O,,"BALB/c mice, brain","oral, 400 mg/kg, 5 min",,brain concentration,5 to 8 ng/mL
CC[C@@H]1C[C@]1(NC(=O)[C@@H]1C[C@@]2(CN1C(=O)[C@@H](NC(=O)[C@@H](NC(=O)[C@@H]1CCCCN1C(C)C)C1CCCCC1)C(C)(C)C)C(C)(C)C21CCC1)C(=O)NS(=O)(=O)N1CCCC1,,healthy human,"oral, 30 mg single dose",,subjects with nausea,0%
C[S]1CC[S]2CC[P](CO)(CO)[99Tc+]12.[C-]#[O+].[C-]#[O+].[C-]#[O+],,CF-1 mouse,"intravenous, 24 h",,uptake in large intestine,2.7 %ID
